Results pooled from the literature.
Every numbered part comes from another study and shows a few of its results, in no order. Changes are numbered by the printed parent chain.

Study 1 — target: NFE2L1, bZIP domain (human); technique: DHFR protein complementation; sample: yeast; baseline: wild-type JUN-FOS pair; direction: higher = stronger binding
Setting: single substitutions, most at no-binding floor
Parent: JUN, bZIP domain (human); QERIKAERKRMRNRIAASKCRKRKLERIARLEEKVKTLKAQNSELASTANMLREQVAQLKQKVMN; partner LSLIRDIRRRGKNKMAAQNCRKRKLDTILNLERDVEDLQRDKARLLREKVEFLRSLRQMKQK
| Change | binding fitness [natural log] |
| --- | --- |
| K34L | -1.1 |
| K36D | -1.47 |
| A49F | -1.35 |
| A40L | -1.31 |
| V56W | -1.52 |
| A57L | -1.55 |
| L31W | -1.16 |
| A57S | -1.53 |
| K34H | -1.32 |
| R53M | -1.56 |
| V35S | -1.36 |
| M51V | -1.32 |
| K39P | -1.51 |
| R30W | -1.41 |
| N42C | -1.52 |
| R53T | -1.27 |
| E32Q | -1.49 |
| A46W | -1.54 |
| T37M | -1.51 |
| A57W | -1.28 |
| E44A | -1.52 |
| E44R | -1.3 |
| L52V | -1.52 |
| S47P | -1.49 |

Study 2 — target: CCND1, cyclin fold, Cln2 fusion (human); technique: yeast growth competition, sequencing; sample: yeast; setting: weak parent motif; baseline: not given; direction: higher = stronger binding
Parent: PPP1R3F docking peptide (human); VAPRRVLFADEAL; partner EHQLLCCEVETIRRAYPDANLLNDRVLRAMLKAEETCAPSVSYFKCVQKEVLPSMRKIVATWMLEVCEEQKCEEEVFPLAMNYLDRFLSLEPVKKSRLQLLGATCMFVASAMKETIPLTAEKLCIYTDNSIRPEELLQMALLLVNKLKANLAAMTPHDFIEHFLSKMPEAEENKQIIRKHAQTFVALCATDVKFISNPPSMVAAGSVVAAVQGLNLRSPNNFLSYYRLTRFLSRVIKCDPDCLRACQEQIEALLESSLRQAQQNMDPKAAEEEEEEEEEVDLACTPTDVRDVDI
| Change | normalised enrichment score |
| --- | --- |
| V1A | 0.524 |
| D10A | 0.047 |
| P3A | 1.44 |
| R5K F8L | 0.0961 |
| R5K | -0.138 |
| R5A | 0.67 |
| R5A L7A | -0.0791 |
| L13A | 0.366 |

Study 3 — technique: RNA Bind-n-Seq; molecule type: RNA; sample: in vitro; concentration: 365 nM; baseline: no-protein control; direction: higher = stronger binding
Target: RNA binding protein fox-1 homolog 2, RRM domain, GST-SBP tag (RBFOX2, Homo sapiens, UniProt O43251-10, residues 100-194)
Setting: natural RNA segment, single round, ends assumed
Shared flanks, not repeated: GGGAGUUCUACAGUCCGACGAUC … UGGAAUUCUCGGGUGCCAA
Target sequence (chain): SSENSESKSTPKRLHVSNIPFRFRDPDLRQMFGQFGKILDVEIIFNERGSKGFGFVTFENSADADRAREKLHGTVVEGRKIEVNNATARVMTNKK
| Strand | RBNS enrichment (R) |
| --- | --- |
| CUUCUGGUCCCCUGUGGUGAUGUGCCUGUAAUCUUUUUCUCCACCCAAACCCCUUCCCACGACAAAAACAAGACUGCCUCCCUCUCUUCCGGGAGCUGGUGACAGCCUUG | 0.735 |
| GUUACAUCGGAGCAGGGGAGCCUCAAAUCCACCUUUGGAGCCGCCCCUGUGUGCAUUAGGAACCCUUCUCUCCUCUGAGAAAGCUCAGAGGGAGCACUGCCUCACAAACU | 1.03 |
| GGAAGAGUGGCCAACCCCAGCAGGUCCUAAGGUGGAGGUCUAGGUGUCUGAAGUGCCUUGGGGGCACCCUCAUUUUGUUUCCAUUCCAACAACGAGAACAGAGAUGUUCU | 0.572 |
| CCAGUUGCCAAACAGACCCCCCACCCCCUGGAUUUUCCUUCUCCCUCCAUCCCUUGACGGUUCUGGCCUUCCCAAACUGCUUUUGAUCUUUUGAUUCCUCUUGGGCUGAA | 0.561 |
| CGCCAUGAAAGUUGUCUCUGUGCCAUCUCUCCGGUCCUUGAGGAGAGCCCAGAAAGAUUUUAGGACCCAGGAGGUGCUUUUCCUCCAGCUGUUGCCAGUGUCCUUCUGAG | 0.17 |
| GAGAAGAGCUGGUGAACCAUAUAAAACUCAAAAGAUUGUCUACUUUAAGAAAUAAAAUACCCUGAAUGGAGCCAAACUCUGUCCCUGUGUGCUGUGUGUGGCUCGUGUGU | 0.989 |
| GUUUUAAAAUGAUCAAUCUUUGUAUGAAAGUCAGUUUUCUUUCUUUAGGUAUCAGAAGAUUUUGCCUUAUUCUGAGGUCGGACUAGGGCCAAGCAAGCUUUUUCCUUCAU | 0.605 |
| GCCUUGCUUCCUGAAGCUCUUCGGCUGACCUCCUCUUGGGAUCAGAGAUCUCCAAAACUAAGCCUUCAAAAACACAUUCGUGAAAAAGACUGAGUCCUCCAGAUCCCUGG | 0.236 |
| UCCUGCACAGCACAGGAAGGCUCCACUCCAUGAAGGAGUGCAUUUAGAAUGGCAUCCUGGUCCUGGAUGCAGAUUCUCAAGUAAAAUUGCUGUUAAAUUUCUUCAAGUCC | 0.34 |
| UUAUCAUCGCCAAAAGGAACGGACUGUGCACUAGAGACUUGCAGCCCACAGCCUUCCGUGUGGGAUCUGCCAGGACAAGCUGGCUAGACCUCUGAGAAGUUGGAGAAGUC | 0.284 |
| AAACAAUUCUGAAAACUGGUCCCUGGUGGUCAGCAGGAAAUGAUCUUUAUUUUUAUGCUAACAACCUUAUUUAAUUAAAAGUGCUGAAACCUGGCAAACUUCUCUAGCAU | 0.423 |
| AUUUGUAUGGUAAAUAUAUACAUAGGUCCAUUUCAGAAAAAAAAUCAUGAUUGUAAAGGGAAUAUAUAACCACACAGAUUUUAUAGCUGCUUCCUGGUUAUCACUUACAU | 0.4 |

Study 4 — technique: DHFR PCA, deep sequencing; sample: yeast; added: (+)-ABA 1.4 µM; baseline: wild-type fitted maximum; direction: higher = stronger binding
Target: ABI1, truncated, D143A, DHFR fusion (Arabidopsis thaliana)
Setting: methotrexate growth selection, single substitutions
Parent: PYL1, truncated, DHFR fusion (Arabidopsis thaliana); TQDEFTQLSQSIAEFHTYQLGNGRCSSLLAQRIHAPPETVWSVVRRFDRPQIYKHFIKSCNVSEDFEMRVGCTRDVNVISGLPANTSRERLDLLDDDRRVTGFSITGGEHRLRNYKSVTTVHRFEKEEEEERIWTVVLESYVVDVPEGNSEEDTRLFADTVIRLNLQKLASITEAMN; partner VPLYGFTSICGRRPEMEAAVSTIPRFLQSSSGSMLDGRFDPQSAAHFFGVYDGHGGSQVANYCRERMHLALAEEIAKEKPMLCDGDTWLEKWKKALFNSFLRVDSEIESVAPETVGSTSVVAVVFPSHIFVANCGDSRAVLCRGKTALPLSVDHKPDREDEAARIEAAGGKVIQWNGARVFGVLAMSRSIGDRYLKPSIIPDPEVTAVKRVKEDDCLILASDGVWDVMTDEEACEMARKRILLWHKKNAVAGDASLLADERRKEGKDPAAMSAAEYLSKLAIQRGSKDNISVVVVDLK
| Change | relative binding score |
| --- | --- |
| N61S | 68.8% |
| C60Y | 10.7% |
| A30K | 52.4% |
| L29H | 46.6% |
| D159L | -20.5% |
| G71R | -0.532% |
| S63F | 12.4% |
| I12D | -10.9% |
| K168Y | 17% |
| H34D | 64.5% |
| Y115S | 2.36% |
| L169F | -18.7% |
| S9V | 46.2% |
| L156F | 8.32% |

Study 5 — technique: RNA Bind-n-Seq; molecule type: RNA; sample: in vitro; concentration: 200 nM; setting: whole 134-nt RNA, ends assumed; added: 150 mM LiCl; baseline: input library; direction: higher = stronger binding; each molecule: 7-deaza-guanosine replaces G
Target: Fragile X messenger ribonucleoprotein 1, C-terminal low-complexity region (Fmr1, Mus musculus, UniProt P35922)
Shared flanks, not repeated: GGGAGUUCUACAGUCCGACGAUC … UGGAAUUCUCGGGUGUCAAGG
| Strand | log2 enrichment |
| --- | --- |
| CCUGUGCUACACAUCGUAUGUACCGAAUCGGUUUUUUUGGUUUUUUUGGGUUUUUUUGGGGAAAGUAUUAUGUUACGCCGUUCGGAUCUG | -1.33 |
| GUCCUGUGCUACACAUCGUAUGUACCGAAUCGGGGAAAAAGGAAAAAGGGAAAAAGGGAAAGUAUUAUGUUACGCCGUUCGGAUCUGCAC | 0.128 |
| AAGUCCUGUGCUACACAUCGUAUGUACCGAAUCGGGGAAAGGGGAAAGGAAAGGGGAAAGUAUUAUGUUACGCCGUUCGGAUCUGCACUU | 0.135 |
| CACAGACAACACGCACAAACACAGACACAGAGGGAAGGGGUUGGGAUGGGGACAGGGUGCACAGCAGGGCGGGGUAGGACCCCAGCCCCU | 0.947 |
| ACCAUGUAGGUGGGCAUCUUUGGGAAGUGGGGCAAGGGGGGGAUAGGGAGGGGGGUAACACUUUGGGAACAGGUGGUCCCAGGUCGUUUC | 1.35 |
| UGGCCCUGGUGGCAUGUGGGGAGGAAGAGGUGGCCUCAUGGAUCGUGGUGGUCCCGGUGGAAUGUUCAGAGGUGGCCGUGGUGGAGACAG | 0.256 |
| CCUCAAGUCCUGUGCUACACAUCGUAUGUACCGAAUCGGAGGGGAGGGAGGGAAAGUAUUAUGUUACGCCGUUCGGAUCUGCACUUCCAG | -0.467 |
| UAACUGUAGAGGAGGAUCUGAUGGAUAUGGCAGUGGACGUGGAUUUGGGGAUGGCUAUAAUGGGUAUGGAGGAGGACCUGGAGGUGGCAA | 1.13 |
| AAGUCCUGUGCUACACAUCGUAUGUACCGAAUCGGAAAAAAAGGUGGUUUUUUUGGAAAGUAUUAUGUUACGCCGUUCGGAUCUGCACUU | -2.68 |
| CAAGUCCUGUGCUACACAUCGUAUGUACCGAAUCGGUUUGGGUUUGGGGUUUGGGGAAAGUAUUAUGUUACGCCGUUCGGAUCUGCACUU | -1.56 |
| CAAGUCCUGUGCUACACAUCGUAUGUACCGAAUCGGGUUUGGGAAAGGGAAAGGGAAAGUAUUAUGUUACGCCGUUCGGAUCUGCACUUC | -0.449 |

Mixed results
| Molecule | target | test | system | setting | how to read | quantity | result |
| --- | --- | --- | --- | --- | --- | --- | --- |
| PhoQ, residues 284 288 289 292 302 303 TLASMF | PhoP, residues 12 14 15 18 19 NNFVT (Escherichia coli, UniProt P23836) | Sort-seq, measured: YFP reporter | E. coli | PhoQ-PhoP variant library, added: 10 µM Mg2+ | baseline: high Mg2+ state, higher = stronger signaling | fold induction | 2.83 |

A few entries again (study 3):
| Strand | RBNS enrichment (R) |
| --- | --- |
| GUUACAUCGGAGCAGGGGAGCCUCAAAUCCACCUUUGGAGCCGCCCCUGUGUGCAUUAGGAACCCUUCUCUCCUCUGAGAAAGCUCAGAGGGAGCACUGCCUCACAAACU | 1.03 |
| GGAAGAGUGGCCAACCCCAGCAGGUCCUAAGGUGGAGGUCUAGGUGUCUGAAGUGCCUUGGGGGCACCCUCAUUUUGUUUCCAUUCCAACAACGAGAACAGAGAUGUUCU | 0.572 |
| CCAGUUGCCAAACAGACCCCCCACCCCCUGGAUUUUCCUUCUCCCUCCAUCCCUUGACGGUUCUGGCCUUCCCAAACUGCUUUUGAUCUUUUGAUUCCUCUUGGGCUGAA | 0.561 |
| CGCCAUGAAAGUUGUCUCUGUGCCAUCUCUCCGGUCCUUGAGGAGAGCCCAGAAAGAUUUUAGGACCCAGGAGGUGCUUUUCCUCCAGCUGUUGCCAGUGUCCUUCUGAG | 0.17 |
| GAGAAGAGCUGGUGAACCAUAUAAAACUCAAAAGAUUGUCUACUUUAAGAAAUAAAAUACCCUGAAUGGAGCCAAACUCUGUCCCUGUGUGCUGUGUGUGGCUCGUGUGU | 0.989 |
| GUUUUAAAAUGAUCAAUCUUUGUAUGAAAGUCAGUUUUCUUUCUUUAGGUAUCAGAAGAUUUUGCCUUAUUCUGAGGUCGGACUAGGGCCAAGCAAGCUUUUUCCUUCAU | 0.605 |
